Measurements collected from several papers.
Protocols differ between the studies behind these lines.
Target: cAMP-dependent protein kinase catalytic subunit beta (PRKACB, Homo sapiens, UniProt P22694)

| SMILES | effect on | mode | technique | tested at | together with | quantity | result |
| --- | --- | --- | --- | --- | --- | --- | --- |
| COc1cc(Nc2nccc(-c3cnn4nc(OC)ccc34)n2)cc(C(F)(F)F)c1 | binding | – | competition with immobilised ligand | 1 µM | – | remaining binding | 100% |
| CCN1CCN(Cc2ccc(C(=O)Nc3ccc(C)c(NCc4cnc5[nH]ccc5c4OC)c3)cc2C(F)(F)F)CC1 | binding | – | competition with immobilised ligand | 1 µM | – | remaining binding | 62% |
| Cc1c[nH]c2nccc(-c3ccc(C(=O)N[C@@H]4c5c(F)cc(C(F)F)cc5C[C@@H]4O)cn3)c12 | binding | – | competition with immobilised ligand | 3 µM | – | remaining binding | 0.7% |
| Cc1cccc(O[C@H]2CCC[C@@H](C(C)CNCc3ccncc3)C2)c1 (relative stereo) | enzyme activity | inhibitor | – | 10 µM | – | inhibition | -2% |
| NC(=O)[C@@H](O)C[C@H]1CCc2sc3ncnc(O[C@H]4CC[C@H](N5CCOCC5)CC4)c3c21 | enzyme activity | inhibitor | – | 10 µM | – | inhibition | 12% |
| Cc1ccc(-c2c(/C=C(\C#N)C(=O)NC(C)C)n(CCCO)c3ncnc(N)c23)cc1 | cell-free assay | – | competition with immobilised ligand | 1 µM | – | remaining binding | 100% |
| CCn1cc(C(=O)O)c(=O)c2c(N)c(F)c(NC3CCCCC3)cc21 | kinase activity | – | – | 0.1 µM | ATP at Km | inhibition | -3.5% |
| O=C(Cc1ccc(OCc2ccccc2)cc1)NC1(C(=O)O)CCN(C(=O)c2ccc(-c3cccc(Cl)c3)cc2)CC1 | enzyme activity | inhibitor | – | 10 µM | – | activity vs control | 108% |
| CN1CCN(Cc2ccc(-c3ccc(CO[C@H]4CCC[C@@H]4NC(=O)c4cc(-c5cnn(C)c5)cnc4N)cc3)cc2)CC1 | enzyme activity | inhibitor | – | 0.1 µM | – | inhibition | 5% |
| COc1c(Cl)cccc1Nc1c(-c2ccncc2C#C[C@@]2(C)CCCN2C(=O)/C=C/CN(C)C)[nH]c2c1C(=O)NCC2 | cell-free assay | – | competition with immobilised ligand | 3 µM | – | remaining binding | 96% |
| CNC(=O)C1CCN(c2cc(C)c(F)cc2NC(=O)c2ccc(-c3cc(O)ccc3C)c(C)c2)CC1 | binding | – | competition with immobilised ligand | 1 µM | – | remaining binding | 99% |
| C=CC(=O)Nc1cccc(-c2cnc3[nH]cc(C(=O)NC(C)(C)C)c3n2)c1 | enzyme activity | inhibitor | – | 0.1 µM | – | inhibition | 3% |
| CC(C)=CC1OC(C)(C)C2C=C3C(=O)C(Cl)=CC(O)C3C3C(O)C4OC4C(=O)C132 (stereo not shown) | cell-free assay | – | competition with immobilised ligand | 10 µM | – | remaining binding | 98% |

Repeated from above:
| SMILES | effect on | mode | technique | tested at | together with | quantity | result |
| --- | --- | --- | --- | --- | --- | --- | --- |
| CCN1CCN(Cc2ccc(C(=O)Nc3ccc(C)c(NCc4cnc5[nH]ccc5c4OC)c3)cc2C(F)(F)F)CC1 | binding | – | competition with immobilised ligand | 1 µM | – | remaining binding | 62% |
